# Experimental data of several laboratories.
# Every numbered part comes from another study and shows a few of its results, in no order. Substitutions count along the parent as printed.

# Series 1
# Target: CCNF, cyclin fold, Cln2 fusion (human)
# Method: yeast growth competition, sequencing
# Medium: yeast
# Setting: strong parent motif
# Baseline: not given
# Reading: higher = stronger binding
# Starting sequence: BRCA2 docking peptide (human); PSIKRNLLNEFDR
Variant,normalised enrichment score
S2G,1.62
I3W,1.52
R5F,0.585
L8C,2.22
N6P,1.27
N6W,2.02
L8W,0.872
R5T,-0.151
S2A,1.7

# Series 2
# Target: Prothrombin, mature alpha-thrombin (F2, Homo sapiens, UniProt P00734)
# Method: aptamer microarray, sandwich
# Form: DNA with 2'F-ANA
# Medium: in vitro
# Concentration: 200 nM
# Setting: whole 15-mer aptamer, many near background
# With: Cy3 exosite-II aptamer, 400 nM
# Reading: higher = stronger binding
# Strand: GGTTGGTGTGGTTGG
Modification,mean fluorescence intensity
2'F-ANA at 1 2 6 7 9 11 15,98.4 a.u.
2'F-ANA at 3 4 5 7 9 11 12 13 14 15,72.8 a.u.
2'F-ANA at 1 2 4 8 10 12 15,71.6 a.u.
2'F-ANA at 1 2 3 4 5 6 9 12 13 15,71.2 a.u.
2'F-ANA at 1 2 4 5 7 8 9 10 12 13 15,50.4 a.u.
2'F-ANA at 3 4 6 8 11 12 13,607 a.u.
2'F-ANA at 1 3 6 7 10 11 12 13 15,95.8 a.u.
2'F-ANA at 2 3 4 6 8 9 11 13 15,314 a.u.
2'F-ANA at 1 2 7 9 13 15,125 a.u.
2'F-ANA at 1 4 5 6 8 10 11 14,47.4 a.u.

# Series 3
# Target: RNA binding protein fox-1 homolog 2, RRM domain, GST-SBP tag (RBFOX2, Homo sapiens, UniProt O43251-10, residues 100-194)
# Method: RNA Bind-n-Seq
# Form: RNA
# Medium: in vitro
# Concentration: 365 nM
# Setting: natural RNA segment, single round, ends assumed
# Baseline: no-protein control
# Reading: higher = stronger binding
# All sequences stand within: GGGAGUUCUACAGUCCGACGAUC … UGGAAUUCUCGGGUGCCAA
# Residues (chain): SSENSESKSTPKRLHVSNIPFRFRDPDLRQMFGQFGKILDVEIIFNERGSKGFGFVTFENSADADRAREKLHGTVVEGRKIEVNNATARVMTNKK
Strand,RBNS enrichment (R)
UCCCAAAGCCGAAACAAGAAAAGUCAGCAUGCCUGGGGCUAGAAGCGGAAUGUAAGAUACGUCUCUAUGCCAAAUGGAGUUGUAGAAUGUACCCUCUCAGCCCAUAAACA,5.35
AGGAAGACAAAGGAAGGGCCAAGGGCACCCCCGUCUAGAAUGCCAGAACCAGCGGGUGGCCUUAGGGGCUGUGAGGCAGUGGGGACCUUAUUGAUGAAAGAAACCGUCUU,2.75
AUCUGGGAGGCUGGUCUCCCUCCAGCUGGAAUUGCUGCUCUCUGAGGGAGAGGCUGUGGUGGCUGUCUCUGUCCCUCACUGCCUUCCAGGAGCAAUUUGCACAUGUAACA,1.24
UGGGCUAUAUGCUGGUUAGGGAAUUCAGCAAAGACCUUGAUUAGAGACCAUGCCCACUGGAUAGAUGGGCAGAGAACCAGCACCUAAAGAACACCUACUGUGUGCCAGGC,0.535
CCAGGAGGCCAGGGUGGUGGUGCUGCUAGGCCAUCCCAAUGUUAGGCUUGUGGGUGAUUCCCCGGGCCUUUUCAUUCAAGCUGCACACAAUGAGUCAUUAAAGUUUGUCA,1.16
ACAAGAUUGUGUCUGGAAACCUUCGCAUCUUGGACCACUGAAUGAAAAAUACUGUGGACACUUAAAUAAUGGGCUAGUUUCUUACAAUGAAAUGUUCUCUAGGAUUCUAA,0.427
GACAUCACCUCAUGCGAUGACCUCCCUCAUUCUGUGCUGCCUCAGCACUUAUCUUUUGAGUUUGUACUGUGGUCCAUGUACUUACUAAUAUGUUGCUUUGUAAUUAUUUU,2.36
CACUAUGUAGCUGGAACAGGAGGCCUAGGACCAGCCUGAUGCAGGUCUAUGAAGACCAGUGGUAGUGCCCAGACUUCUCCUAGACAUCUAGUCUAAAACAUUCUCCUAGG,0.613
ACCCAGGAACCAAAUAUUCCAUUUUGGCUUCUGCUAGAGCAGUCAUGGUUCCUCUCCUAAAAGCCAUGGGCAGCAGUUUCCGAGGGCCUGCAUGAUCCACCUGCUGCACG,11.8
UAUCCAUUAACUUUCAUGGCUGACUUCUGUCUAGGCAUCAUAGUUUGCUUCAGAAUAGAUCUUUAUCAUCAUGUCUGCCUUUCCAUACUAUUGUAUUUAUUUUAGAAACU,0.31
AGUUGAAGCAGUCCGUGUGCAAAGCCUGCAUCUAAACACUUGCGUUAAUAAGUCAUUAACCGCUCAGUACCAGAUGUGGCAAAUCUCAAGUGAUUGUGGACUCCUGGCUC,0.23

# Mixed results
Substance,target,test,system,setting,scale,quantity,result
"PhoQ, residues 284 288 289 292 302 303 TYGVAM","PhoP, residues 12 14 15 18 19 GQALL (Escherichia coli, UniProt P23836)","Sort-seq, refers to: YFP reporter",E. coli,"PhoQ-PhoP variant library, with: 10 µM Mg2+","baseline: high Mg2+ state, higher = stronger signaling",fold induction,25.9

# Excerpt of the above (series 2):
Modification,mean fluorescence intensity
2'F-ANA at 3 4 6 8 11 12 13,607 a.u.
2'F-ANA at 1 2 4 5 7 8 9 10 12 13 15,50.4 a.u.
2'F-ANA at 2 3 4 6 8 9 11 13 15,314 a.u.
2'F-ANA at 3 4 5 7 9 11 12 13 14 15,72.8 a.u.
